{"data": "Results gathered from unrelated publications", "note": "Compare with care: the assays were run in different laboratories. Numbers after ± are the reported error."}
{"SMILES": "COc1ccc2[nH]cc(C[C@H](NC(=O)CCN)C(=O)N[C@@H](Cc3ccc(Cl)cc3)C(=O)N[C@@H](Cc3ccncc3)C(N)=O)c2c1", "test": "EphA4-ephrin-A5 binding, antagonist, ELISA", "test system": "mouse serum", "setting": "concentration not given, 24 h, 37 °C", "endpoint": "remaining binding", "result": "~80%"}
{"SMILES": "[11CH3]Oc1ccc(Cc2cn[nH]c2)nc1-c1cccc([N+](=O)[O-])c1", "test system": "human plasma in vitro", "setting": "30 min, room temperature", "endpoint": "remaining parent", "result": "96 ± 0.4%"}
{"SMILES": "CCCC(CCC)NC(=O)c1ccc(OC)c(O)c1", "test system": "rat liver microsomes", "setting": "1.0 µM, 60 min, pH 7.4, without NADPH", "endpoint": "remaining parent compound", "result": "94.9%"}
{"SMILES": "CN(Cc1ccc(F)cc1)Cc1cc(=O)oc2cc(O)ccc12", "test system": "human serum", "setting": "0.5 mM, 60 min", "endpoint": "remaining intact compound", "result": "> 99%"}
{"SMILES": "N[C@@H](CO)C(=O)N1CCC[C@H]1C(=O)NCC(=O)NCC(=O)O", "test": "ESI-MS", "test system": "1-propanol, 0.5% acetic acid", "setting": "5 µM, 90 min, 70 °C, diketopiperazine formation", "endpoint": "remaining peptide", "result": "58%"}
{"SMILES": "CCCC1OC2CC3C4CCC5=CC(=O)C=CC5(C)C4C(O)CC3(C)C2(C(=O)COC(=O)CN(C)C)O1 (stereo not shown)", "test system": "human plasma", "setting": "200 µg/mL, 8 h, 37 °C", "endpoint": "remaining conjugate", "result": "< 2%"}
{"SMILES": "C=CC(=O)Nc1cc(Nc2nccc(-c3cn(C)c4ccccc34)n2)c(OCC(F)(F)F)nc1N(C)CCN(C)C", "test": "LC-MS", "test system": "human liver microsomes", "setting": "3 µM, 60 min, added: α-naphthoflavone 2 µM", "scale": "reference: no inhibitor", "endpoint": "remaining parent compound", "result": "89%"}
{"SMILES": "NCCCC[C@H](N)C(=O)N1CCC[C@H]1C(=O)NCC(=O)NCC(=O)O", "test": "diketopiperazine formation, ESI-MS", "test system": "1-propanol", "setting": "5 µM, 90 min, 70 °C, 0.5% acetic acid", "scale": "reference: initial signal", "endpoint": "remaining peptide", "result": "39%"}
{"SMILES": "CC(C)Oc1ncnc2c1c(Cl)cn2[C@@H]1O[C@H](CO)[C@@H](O)[C@H]1O", "test system": "bovine liver microsomes", "setting": "30 min", "endpoint": "remaining parent compound", "result": "≥ 50%"}
{"SMILES": "C=CC(=O)Nc1cc(Nc2nccc(-c3cn(C)c4ccccc34)n2)c(OCC(F)(F)F)nc1NCCN(C)C", "test": "LC-MS", "test system": "human liver microsomes", "setting": "3 µM, 60 min, added: α-naphthoflavone 2 µM", "scale": "reference: no inhibitor", "endpoint": "remaining parent compound", "result": "96%"}
{"SMILES": "CC[C@H](C)[C@H](N)C(=O)N1CCC[C@H]1C(=O)NCC(=O)NCC(=O)O", "test": "diketopiperazine formation, ESI-MS", "test system": "1-propanol", "setting": "5 µM, 90 min, 70 °C, 0.5% acetic acid", "scale": "reference: initial signal", "endpoint": "remaining peptide", "result": "~74%"}
{"SMILES": "C=CC(=O)Nc1cc(Nc2nccc(-c3cn(C)c4ccccc34)n2)c(OCC(F)(F)F)nc1NC", "test": "LC-MS", "test system": "human liver microsomes", "setting": "3 µM, 60 min, added: quercetin 20 µM", "scale": "reference: no inhibitor", "endpoint": "remaining parent compound", "result": "37%"}
{"SMILES": "C=C1C[C@@]23CC[C@H]4[C@@](C)(CCC[C@@]4(C)C(=O)O[C@@H]4O[C@H](CO)[C@@H](O)[C@H](O)[C@H]4O)[C@@H]2CC[C@]1(O[C@@H]1O[C@H](CO[C@H]2O[C@H](CO)[C@@H](O)[C@H](O)[C@H]2O)[C@@H](O)[C@H](O)[C@H]1O[C@@H]1O[C@H](CO)[C@@H](O)[C@H](O)[C@H]1O)C3", "test system": "aqueous solution", "setting": "1% w/v, 1 months, 25 °C", "scale": "reference: initial", "endpoint": "remaining concentration", "result": "> 95%"}
{"SMILES": "O=C([O-])CN1CCN(CC(=O)[O-])CCN(CC(=O)[O-])C(Cc2ccc(NC(=S)NCCc3ccc4c(c3)C3C=CCC3C(c3cc5c(cc3Br)OCO5)N4)cc2)CN(CC(=O)[O-])CC1.[111In+3] (stereo not shown)", "test system": "mouse plasma", "setting": "up to 4 days, 37 °C, In(III) complex", "endpoint": "remaining intact compound", "result": "> 90%"}
{"SMILES": "CC(=O)N[C@H](C(=O)N[C@H](C(=O)N[C@@H](CCCNC(=N)N)C(=O)N[C@@H](CC(N)=O)C(=O)N[C@@H](CC(=O)O)C(=O)N[C@H](C(=O)N1CCC[C@@H]1C(=O)N1CCC[C@H]1C(=O)N[C@@H](CC(=O)O)C(=O)N[C@@H](CO)C(=O)N[C@@H](CC(C)C)C(=O)N[C@@H](CC(C)C)C(=O)N[C@H](C(=O)N[C@@H](Cc1ccccc1)C(N)=O)C(C)C)C(C)C)[C@@H](C)O)C(C)C", "test": "mass spectrometry", "test system": "culture medium with HEK293T cells", "setting": "24 h, 10% FBS", "scale": "reference: time zero", "endpoint": "remaining peptide", "result": "~50%"}
{"SMILES": "O=C([O-])CN1CCN(CC(=O)[O-])CCN(CC(=O)NCCc2ccc3c(c2)C2C=CCC2C(c2cc4c(cc2Br)OCO4)N3)CCN(CC(=O)[O-])CC1.[111In+3] (stereo not shown)", "test system": "PBS", "setting": "up to 4 days, pH 7.4, 37 °C, In(III) complex", "endpoint": "remaining intact compound", "result": "> 90%"}
{"SMILES": "NC(=O)CNC(=O)[C@@H]1CCCN1C(=O)[C@@H]1CCCN1C(=O)[C@@H]1C[C@@H](O)CN1C(=O)[C@@H]1C[C@@H](O)CN1C(=O)CNC(=O)CNC(=O)[C@@H]1CCCN1C(=O)[C@@H]1C[C@@H](O)CN1C(=O)[C@@H]1C[C@@H](O)CN1C(=O)CNC(=O)[C@@H]1CCCN1C(=O)[C@@H]1CCCN1C(=O)[C@@H]1C[C@@H](O)CN1C(=O)CNC(=O)[C@@H]1C[C@@H](O)CN1C(=O)CNC(=O)[C@@H]1C[C@@H](O)CN1C(=O)[C@@H]1CCCN1C(=O)[C@@H]1C[C@@H](O)CN1C(=O)[C@@H]1CCCN1C(=O)CNC(=O)[C@@H]1CCCN1C(=O)CNC(=O)[C@@H]1C[C@@H](O)CN1C(=O)CNC(=O)[C@@H]1CCCN1C(=O)CNC(=O)CNC(=O)CNC(=O)c1ccc2c(c1)C(=O)OC21c2ccc(O)cc2Oc2cc(O)ccc21", "test": "RP-HPLC", "test system": "25% mouse serum in PBS", "setting": "50 µM, 24 h, 37 °C", "scale": "reference: zero time point", "endpoint": "remaining intact peptide", "result": "79.1%"}
{"SMILES": "NC12CNCCNCC(NCc3ccc(CNC(=O)CCCC(=O)NCc4ccc(-c5nncnn5)cc4)cc3)(CNCCNC1)CNCCNC2.[64Cu+2]", "test system": "PBS", "setting": "2 h, pH 7.4, 37 °C", "endpoint": "remaining intact compound", "result": "94.7 ± 0.6%"}
{"SMILES": "COc1c2c(cc3oc(COC4OC(CO)C(O)C(O)C4O)cc(=O)c13)OC(C(C)(C)O)C2 (stereo not shown)", "test system": "simulated intestinal fluid with pancreatin", "setting": "213.47 nmol/L, 2 h, pH 6.8, 37 °C", "endpoint": "remaining concentration", "result": "0.38 nmol/mL"}
{"SMILES": "CC(=O)N([O-])CCCCCNC(=O)CCC(=O)N([O-])CCCCCNC(=O)CCC(=O)N([O-])CCCCCN.[89Zr+4]", "test system": "mouse plasma", "setting": "7 d, 37 °C", "endpoint": "remaining intact complex", "result": "78%"}
{"SMILES": "CCCC1OC2CC3C4CCC5=CC(=O)C=CC5(C)C4C(O)CC3(C)C2(C(=O)COC(=O)CN(CC)CC)O1 (stereo not shown)", "test system": "aqueous buffer", "setting": "200 µg/mL, 48 h, pH 1.2, 37 °C", "endpoint": "remaining conjugate", "result": "93.3%"}
{"SMILES": "C=CC(=O)Nc1cc(Nc2nccc(-c3cn(C)c4ccccc34)n2)c(OCC(F)(F)F)nc1N(C)CCNC", "test": "LC-MS", "test system": "human liver microsomes", "setting": "3 µM, 60 min, added: α-naphthoflavone 2 µM", "scale": "reference: no inhibitor", "endpoint": "remaining parent compound", "result": "97%"}
{"SMILES": "CC(C)c1cnn2c(NCc3ccccc3F)cc(N[C@H]3CC[C@@H](N)CC3)nc12", "test system": "mouse liver S9 fraction", "setting": "5 µM, 60 min, pH 7.4, added: NADPH", "endpoint": "remaining parent compound", "result": "> 50%"}
{"SMILES": "CC(C)(O)[C@H]1Cc2cc3ccc(=O)oc3cc2O1", "test system": "spiked rat plasma QC samples", "setting": "0.1, 0.5, 5.0 µg/mL, 4 weeks, -20 °C", "endpoint": "remaining analyte", "result": "97.6 ± 6.8%"}
{"SMILES": "Cn1cc(-c2ccnc(N)n2)c2ccccc21", "test": "LC-MS", "test system": "human liver microsomes", "setting": "3 µM, 60 min, added: quercetin 20 µM", "scale": "reference: no inhibitor", "endpoint": "remaining parent compound", "result": "70%"}
{"SMILES": "CCCC(CCC)NC(=O)c1ccc(O)c(OC)c1", "test system": "rat liver microsomes", "setting": "1.0 µM, 60 min, pH 7.4, without NADPH", "endpoint": "remaining parent compound", "result": "81.1%"}
{"SMILES": "COc1cc(NC(C)=O)c2c(c1O)-c1c(OC)c(OC)cc3c1C(C2)N(C)CC3 (stereo not shown)", "test system": "rat liver homogenate", "setting": "0.5 µg/mL, 24 h, room temperature, post-preparative storage", "endpoint": "remaining compound", "result": "111 ± 4.2%"}
{"SMILES": "CC[C@H](C)[C@H](NC(=O)CNC(=O)CNC(=O)c1ccc2c(c1)C(=O)OC21c2ccc(O)cc2Oc2cc(O)ccc21)C(=O)N[C@@H](Cc1ccc(O)cc1)C(=O)N[C@@H](C)C(=O)N(C)[C@@H](C)C(=O)N1CCC[C@H]1C(=O)N(C)[C@@H](Cc1ccccc1)C(=O)N[C@@H](CCCCN)C(=O)N[C@@H](CCCCN)C(=O)N[C@@H](CCCCN)C(=O)N[C@@H](C)C(N)=O", "test": "CE-LIF", "test system": "Baf/BCR-ABL cytosolic lysate", "setting": "1 µM, 60 min, 37 °C", "endpoint": "remaining peptide", "result": "22 ± 8%"}
{"SMILES": "CNC(=O)c1ccc(N2CCN(Cc3ccc4nc(C)c(=O)[nH]c4c3F)CC2)c([18F])n1", "test system": "human liver microsomes", "setting": "90 min", "endpoint": "remaining intact tracer", "result": "> 95%"}
{"SMILES": "C=CC(=O)Nc1cc(Nc2nccc(-c3cn(C)c4ccccc34)n2)c(O)nc1N(C)CCN(C)C", "test": "LC-MS", "test system": "human liver microsomes", "setting": "3 µM, 60 min, added: quercetin 20 µM", "scale": "reference: no inhibitor", "endpoint": "remaining parent compound", "result": "31%"}
{"SMILES": "O=C([O-])CN1CCN(CC(=O)[O-])CC(Cc2ccc(NC(=S)NCCOCCOCCOCCOCCOCCOCCOCCNC(=O)CCCC(=O)NCc3ccc(-c4nncnn4)cc3)cc2)N(CC(=O)[O-])CC1.[64Cu+2] (stereo not shown)", "test system": "PBS", "setting": "4 h, pH 7.4, 37 °C", "endpoint": "remaining intact compound", "result": "83.2 ± 4.6%"}
{"note": "A few entries again:"}
{"SMILES": "NCCCC[C@H](N)C(=O)N1CCC[C@H]1C(=O)NCC(=O)NCC(=O)O", "test": "diketopiperazine formation, ESI-MS", "test system": "1-propanol", "setting": "5 µM, 90 min, 70 °C, 0.5% acetic acid", "scale": "reference: initial signal", "endpoint": "remaining peptide", "result": "39%"}
{"SMILES": "CC(C)Oc1ncnc2c1c(Cl)cn2[C@@H]1O[C@H](CO)[C@@H](O)[C@H]1O", "test system": "bovine liver microsomes", "setting": "30 min", "endpoint": "remaining parent compound", "result": "≥ 50%"}
